Measured values gathered from unrelated publications.
Each numbered part is a random draw from the data of one study; scales do not carry over between parts.

Block 1
Target: Ras GTPase-activating protein-binding protein 1, RRM domain (G3BP1, Homo sapiens, UniProt Q13283)
Sequence of UniProt Q13283 (whole entry, looked up): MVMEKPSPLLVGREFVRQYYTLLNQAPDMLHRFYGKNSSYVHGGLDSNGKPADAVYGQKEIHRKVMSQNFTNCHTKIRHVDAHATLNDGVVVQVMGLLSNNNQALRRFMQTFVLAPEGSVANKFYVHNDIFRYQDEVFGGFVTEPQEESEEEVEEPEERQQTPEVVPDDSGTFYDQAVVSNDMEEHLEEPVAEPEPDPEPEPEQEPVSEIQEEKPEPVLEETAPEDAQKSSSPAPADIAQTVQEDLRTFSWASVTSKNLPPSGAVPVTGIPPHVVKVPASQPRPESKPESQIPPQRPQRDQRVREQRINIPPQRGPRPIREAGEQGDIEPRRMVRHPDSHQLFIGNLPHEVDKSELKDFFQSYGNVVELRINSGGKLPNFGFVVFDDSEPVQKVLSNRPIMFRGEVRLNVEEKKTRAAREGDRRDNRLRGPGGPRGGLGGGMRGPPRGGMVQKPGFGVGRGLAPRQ
Technique: RNA Bind-n-Seq
Molecule type: RNA
Sample: in vitro
Tested at: 1 µM
Notes: whole 134-nt RNA, ends assumed
Added: 150 mM KCl
Baseline: input library
Reading: higher = stronger binding
Shared flanks, not repeated: GGGAGUUCUACAGUCCGACGAUC … UGGAAUUCUCGGGUGUCAAGG
Strand | log2 enrichment
AAGUCCUGUGCUACACAUCGUAUGUACCGAAUCGGGGUUUUGGUUUUGGGUUUUGGGAAAGUAUUAUGUUACGCCGUUCGGAUCUGCACU | -0.222
ACCAUGCAGGUGGGCAUCUUUGGGAAGUGGGGCAAGGGGGGGAUAGGGAGGGGGGUAAAAAUUUGGGAACAGGUGGUCCCAGGUCGUUUC | -0.39
AAGUCCUGUGCUACACAUCGUAUGUACCGAAUCGGGGAAAGGGGAAAGGGAAAGGGGAAAGUAUUAUGUUACGCCGUUCGGAUCUGCACU | 0.438
CCUGUGCUACACAUCGUAUGUACCGAAUCGGGGAAAAAAGGGAAAAAAGGGGAAAAAAGGGAAAGUAUUAUGUUACGCCGUUCGGAUCUG | -0.0184
UCCUUUCUGUCAUUUUACACCCACAGUUGAAGAUUCCUGUCUCUGGAUCCAAAUCAGAGGGCCUUCUCUACGUCCACUCAUCCAGAGGUG | -0.214
AAGUCCUGUGCUACACAUCGUAUGUACCGAAUCGGGGAGGGGUUUGGGGUUUGGGGAAAGUAUUAUGUUACGCCGUUCGGAUCUGCACUU | 0.867
CACAGACAACACGCACCCACACAGAAACAGAGGGAAGGGGUUGGGAUGGGGACAGGGUGCACAGCAGGGCGGGGUAGGACCCCAGCCCCU | -0.181
AAGUCCUGUGCUACACAUCGUAUGUACCGAAUCGGUUUUUGGAAAAAAAGGAAAGGAAAGUAUUAUGUUACGCCGUUCGGAUCUGCACUU | -0.288
ACCAUGCAGGUGGGCAUCUUUGGGAAGUGGGGCAAGGGGGGGAUAGGGAGGGGGGUAACACUCUGGGAACAGGUGGUCCCAGGUCGUUUC | 0.666
GUCCUGUGCUACACAUCGUAUGUACCGAAUCGGGGCCCCCGGGGCCCCCGGGCCCCCGGAAAGUAUUAUGUUACGCCGUUCGGAUCUGCA | -0.606
AGUCCUGUGCUACACAUCGUAUGUACCGAAUCGGAAAAGGGGAAAAGGGAAAAGGGGAAAGUAUUAUGUUACGCCGUUCGGAUCUGCACU | 0.24
UGGGAGGUGGAUUUUGUUUAUUUUUUUAGCUCAUUUCCAGGGGUGGGAAUUUUUUUUUAAUAUGUGUCAUGAAUAAAGUUGUUUUUGAAU | 1.51
CAAGUCCUGUGCUACACAUCGUAUGUACCGAAUCGGCCCCGGCCCCGGGGCCCCGGAAAGUAUUAUGUUACGCCGUUCGGAUCUGCACUU | -0.47
UGGCCCUGGUGGCAUGCGGGGAGGAAAAGGUGGCCUCAUGGAUCGUGGUGGUCCCGGUGGAAUGUUCAGAGGUGGCCGUGGUGGAGACAG | 0.872

Block 2
Target: RING finger protein unkempt homolog, zinc fingers 1-6, SBP tag (UNK, Homo sapiens, UniProt Q9C0B0, residues 30-357)
Sequence of UniProt Q9C0B0 (30-357, looked up): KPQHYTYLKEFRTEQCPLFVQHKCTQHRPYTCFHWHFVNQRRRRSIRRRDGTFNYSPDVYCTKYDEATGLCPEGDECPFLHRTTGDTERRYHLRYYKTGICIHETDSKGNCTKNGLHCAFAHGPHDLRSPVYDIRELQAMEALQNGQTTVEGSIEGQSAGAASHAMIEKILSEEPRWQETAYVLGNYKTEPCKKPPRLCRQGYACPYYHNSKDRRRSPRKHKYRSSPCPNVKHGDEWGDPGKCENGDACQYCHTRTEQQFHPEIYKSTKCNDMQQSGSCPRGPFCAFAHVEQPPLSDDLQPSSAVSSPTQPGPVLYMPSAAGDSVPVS
Technique: RNA Bind-n-Seq
Molecule type: RNA
Sample: in vitro
Tested at: 100 nM
Notes: RNA with constant flanks, vertebrate orthologous sites, ends assumed
Baseline: input RNA pool
Reading: higher = stronger binding
Shared flanks, not repeated: GGGAGUUCUACAGUCCGACGAUC … CAACAGAGGAUUGAGCAUCA
Strand | bound/input enrichment [ratio]
CGCCCAUUAGUAAAAGCUACCUACUUUCAUUGCAGUAUGUCAAAAGGAUCGAAUGGUCUUUUUCACAUUCAAACUAAAACCUCUUCCAAGUUCACUCUUCUGUACCAUUACAGUUCCUUA | 1.24
CAGCUGAUUCACUGAUUGGGAGAGCUGCACAUAUAGCUGUUCUUGACUCAGAAAUAUUUUUAGAAAAAUUCUUUCUGGUUGCUGCCCUCAAAUAUUUCCAAUAGGAUAAAACCAUUCUUA | 0.663
AAUUCAUCUCUCACUUACCUGAAACUGCUAUGAGGGUUUGAAACUUUGGUUAGUUUCGUGUAGAACUACACUGGCAGGUGCUCAAAUACCGUCAUAGCGAGACGAAAUACCAUCACGGUG | 0.348
CUUAAUUAGAGGGCAAUAUAUGUUUCAUAAAGAAGAGUCUUUAUAAUUUUGUUUGUCAGAUAGUAUUUUGGAAUUUGUAUAAUGAGGAUGUUUAGAAGCCAUGUAAGUGGCUUUUUUUAA | 0.466
CUUUUAAUCAACUAUGUCUGUAAAUGUAUAUUGAGAGAAUUGAAGUAUUUAUAAACAGAGUGAUUUAUUUAAGGAAAAGCUUAUCCCUCUUUCCUAUCGUGGUCUGUGUUAAUUACAUUU | 0.29
AGAAAAUUUUAACCAAGAGUCUGAAGCUAGAAAUACAGGACCAUGGUUAUCUUCCUCACUUAGAAAUAGAUGCACACCCUUGUUCUCUAGAAGGAGGCGAGAAGGAAGAGACGAAUCUUC | 1.21
CCUGUGAGGGUCUACUGACCACUCACCAUUACGUCUGGUAUCUGUAAACACUCUUGUUCCUAGUCUUUUUCUUGUAUAAUUGAUGUCCUUUGAAAUCGUUAAUGUAUAACAGGGCUUAUG | 2.59
UCUCUGCAAUUUUAAAGACACUUCCUUAUAAGGCACUUUGGCUCUUCAUAUAUCUCAUCCUGUUUACUUACCUGUUUUCAAAAACAGCAGUAUGAACUCAGGGGACUCGCUUGGCGUGUG | 0.385
AUUUUUUAAAGUUUUUUUAAUUUAAUUUUUCCUUUUGGGGGUAAAGUUUGCUCUACCAAAUAGUGAUCGUAACAAAUGAUCUGUUUUGGAUGUUGCUAUAGUGACAUGCAGUUAUAUAUU | 0.368
UAUCUUUAGGAUGAAGCUCUUGCACCAGGUGUCACGGGUCUGGAAAACAGACGGCCUGACGAGUUGUUCUUACAAAUUACUGUCUGUGGAACACAAUCCUUUAUAUGUCAACAUCACAGU | 0.214
UACAGAGGAGAGCUCACAACUCAAAGGAAAACCACUAAAGAGUUUCUAAUAGUCAAGAGCUAGGAAAUAUUAAGUCAACUUUACAAAUAAUAGCAAUUAAAAAAAGAGAUGAGAACACAG | 0.726

Block 3
Target: Histone acetyltransferase KAT6A, winged helix 2, GST fusion (KAT6A, Homo sapiens, UniProt Q92794, residues 85-181)
Technique: protein binding microarray
Molecule type: double-stranded DNA, one strand shown
Sample: in vitro
Tested at: not given
Notes: 8-mer, flanks averaged, mean of 2 arrays, mostly near background
Baseline: not given
Reading: higher = stronger binding
Target sequence (chain): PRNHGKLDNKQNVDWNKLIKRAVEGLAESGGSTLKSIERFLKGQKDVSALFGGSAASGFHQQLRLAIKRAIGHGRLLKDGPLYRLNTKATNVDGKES
Strand | E-score
CACTTTGG | 0.0818
GTGCTGCA | 7e-05
GTTTAACA | -0.0357
TCGTGCAA | 0.178
ACGGTCAT | 0.0172
ATCCGGGG | 0.182
ACTAGAAA | -0.0328
AGCGCCTC | -0.0146
CCCGGATC | 0.191
CGTTTGAA | -0.0442
ATCGCGCC | 0.27
TATAGGGA | -0.0861
ATGCTTAG | 0.098
TCATATGA | -0.0459
GCGATGCA | 0.000975
CGGTACTC | -0.0217
ATTACAGA | 0.182
ACAGTTTG | -0.0105
AACCAGAG | -0.055
GTACACAC | 0.0576
TGTGCGAA | 0.0658
ACATGGAG | -0.121
CTGGTCGA | -0.00604
CTAGCATC | 0.0286
AAGCTTGC | 0.0716

Block 4
Target: Interferon regulatory factor 5, full length, phosphomimetic (IRF5, Homo sapiens, UniProt Q13568-2, residues 1-514, S451D/S453D/S456D/S462D)
Technique: protein-binding microarray
Molecule type: double-stranded DNA, one strand shown
Sample: in vitro
Tested at: 940 nM top
Notes: 60-bp whole probe
Added: salmon DNA 0.4 mg/ml
Baseline: random background probes
Reading: higher = stronger binding
Shared flanks, not repeated: GCCTAGCAC … GTCTTGATTCGCTTGACGCTGCTG
Strand | fitted relative affinity
TCATGCTTGTGTTTATTACTGTGCTAG | 0.426 z-score
TTAGATCTCAGTCTCGCTTAGTGCTAG | 1.4 z-score
TTAGATATCGGGTTTCGATTTGTGCTA | 4.95 z-score
TGTGTTGCAGAAACGCCATGGTGCTAG | -0.308 z-score
TTAGGTCTCGGACTGGGCTAGTGCTAG | 0.813 z-score
TTAGATTTCGGGACTGGATCAGTGCTA | 0.64 z-score
TTAGTTCTCAGTATCGATTAGTGCTAG | 5.88 z-score
TCCCAAGTCTTGTTTTACAATGTGCTA | 0.427 z-score
GACGATCTGAGACTGGAGACGTGCTAG | -0.492 z-score
ACAGCAAGAGCTCAACGGGGGTGCTAG | 0.106 z-score
ATAGGACTGCTTTTCCTTTAGTGCTAG | -0.0614 z-score
GACGATTCCAGTTTCGAGATGTGCTAG | 4.39 z-score
TCATCTTTCCCTGCCCCACTGTGCTAG | 1.47 z-score
CTCGCCTGGGGATGCTAACAGTGCTAG | -0.333 z-score
TCCCTTCAACAGTGCTGGCTGTGCTAG | 0.0226 z-score
GGGGCTTGGGAGAGGCATCCGTGCTAG | -0.108 z-score
GACGGTTTCGACTTTCGGGATGTGCTA | 7.25 z-score
TTAGGACTGGGTTTCGGTCAGTGCTAG | 6.44 z-score
GACGGTTTCGGGACTGGCGACGTGCTA | 6.55 z-score
AGTTCTCTGAAGACTCTCTTGGTGCTA | 0.363 z-score

Block 5
Sequence: RKLDLEGIGR
Technique: competitive growth deep sequencing
Molecule type: peptide
Tested at: concentration not given
Reading: direction not given
tested on | assay | test system | setting | growth enrichment score
yeast with cyclin D1-Cln2 chimera | cell growth, binder | – | peptide tiling library | 0.618
yeast with cyclin E2-Cln2 chimera | cell growth, binder | – | peptide tiling library | 1.65
Saccharomyces cerevisiae | binding | cyclin E1-Cln2 fusion strain | tiling library, Cln2 subtracted | 0.143
Saccharomyces cerevisiae | binding | cyclin D3-Cln2 fusion strain | peptide tiling library | 0.829
Saccharomyces cerevisiae | binding | cyclin D3-Cln2 fusion strain | tiling library, Cln2 subtracted | 0.829
Saccharomyces cerevisiae | binding | cyclin E1-Cln2 fusion strain | peptide tiling library | 0.143

Excerpt of the above (block 3):
Strand | E-score
GTACACAC | 0.0576
AACCAGAG | -0.055
ATTACAGA | 0.182
GCGATGCA | 0.000975
AGCGCCTC | -0.0146
GTTTAACA | -0.0357
